# Experimental data pooled from the literature.
# Sample: plasma
# Route: oral
Compound,test system,conditions,Tmax [h]
Cc1[nH]c2ccccc2c1CCNCc1ccc(/C=C/C(=O)NO)cc1,human,"20 mg, single dose, fed",4
C=C(C)[C@@H]1CC[C@]2(NCCN3CCS(=O)(=O)CC3)CC[C@]3(C)[C@H](CC[C@@H]4[C@@]5(C)CC=C(C6=CC[C@@](CF)(C(=O)O)CC6)C(C)(C)[C@@H]5CC[C@]43C)[C@@H]12,human,"40 mg, multiple doses, once daily, patients",4.06
O=C(O)COC[C@H]1CC[C@H](COC(=O)N(c2ccccc2)c2ccc(Cl)cc2)CC1,human,"20 µg, multiple doses, twice daily, steady state",1
CCCOc1ccc([C@H]2CNC(=O)N2c2ccc3[nH]cnc3c2)cc1,human,"10 mg, single dose, fasted",0.5
Nc1ncc(-c2cnn(CCO)c2)c2scc(-c3ccc(NC(=O)Nc4cccc(F)c4)cc3)c12,human,"80 mg, patients",3
CNCc1ccc(-c2[nH]c3cc(F)cc4c3c2CCNC4=O)cc1,human,"600 mg, single dose, fasted",4.02
CCOc1ccc(Cc2cc([C@]34OC[C@](CO)(O3)[C@@H](O)[C@H](O)[C@H]4O)ccc2Cl)cc1,human,"15 mg, single dose, healthy volunteers",1
C#C[C@]1(CO)O[C@@H](n2cnc3c(N)nc(F)nc32)C[C@@H]1O,human,"5 mg, single dose, fasted",0.5
CN(C)C/C=C/C(=O)Nc1cc2c(Nc3ccc(F)c(Cl)c3)ncnc2cc1O[C@H]1CCOC1,human,"40 mg, multiple doses, once daily, steady state, patients",2.95
C[C@@H]1CCC[C@H](n2cnc(-c3cc(Cl)ccc3-n3cc(Cl)nn3)cc2=O)c2cc(ccn2)-c2c(cnn2C(F)F)NC1=O,human,"single dose, fasted, healthy volunteers",3
CN(C)Cc1c(C(=O)NCCOc2ccc(C(=O)NO)cc2)oc2ccccc12,human,"80 mg, single dose, patients",0.99
O=C(c1cccnc1-c1ccncc1)N1CCC(O)(Cc2ccccc2)CC1,human,"400 mg, multiple doses, once daily, healthy volunteers",0.33
CC#CC(=O)N1CCC[C@H]1c1nc(-c2ccc(C(=O)Nc3ccccn3)cc2)c2c(N)nccn12,human,"100 mg, single dose, fasted",0.735
CNC(=O)c1ccc(-c2cnc3ncc(Cc4ccc5ncccc5c4)n3n2)cc1F,human,"350 mg twice daily, multiple doses, steady state, patients",3.93
CS(=O)(=O)n1cc2c(n1)CN([C@H]1CO[C@H](c3cc(F)ccc3F)[C@@H](N)C1)C2,male human,"50 mg, single dose, fasted",1
Cn1ncc(Cl)c1-c1cc(C(=O)N[C@H](CN)Cc2ccc(F)c(F)c2)oc1Cl,human,"150 mg, multiple doses, once daily, patients",0 to 4
Cc1cn([C@H]2C[C@H](N=[N+]=[N-])[C@@H](CO)O2)c(=O)[nH]c1=O,male human,"600 mg, single dose",≤ 0.583
C[C@H]1CO[C@@H]2Cn3cc(C(=O)NCc4ccc(F)cc4F)c(=O)c(O)c3C(=O)N12,human,"30 mg, single dose, fed",3.01
O=C(O)C[C@H](O)C[C@H](O)/C=C/c1c(C2CC2)nc2ccccc2c1-c1ccc(F)cc1,female human,"2 mg, multiple doses, once daily",0.75
CC(C)(/C=C(\C#N)C(=O)N1CCC[C@@H](n2nc(-c3ccc(Oc4ccccc4)cc3F)c3c(N)ncnc32)C1)N1CCN(C2COC2)CC1,human,"100 mg, single dose, healthy volunteers",1.1
CS(=O)(=O)n1cc2c(n1)CN([C@H]1CO[C@H](c3cc(F)ccc3F)[C@@H](N)C1)C2,male human,"100 mg, multiple doses, healthy volunteers",1
Nc1ccc(-c2nc([C@H]3CCc4cc(-c5cc(Cl)ccc5-n5cnnn5)cc(=O)n43)c(F)[nH]2)c(F)n1,human,"300 mg, single dose, fasted, healthy volunteers",4
O=C(c1nc2n(n1)[C@H](c1ccccc1)C[C@@H]2F)C1CC1,human,"25 mg, single dose, fasted, healthy volunteers",1.94
COc1cccc(-c2ccc(NC(=O)C3=C(C(=O)O)CCC3)c(F)c2)c1,male human,"30 mg, single dose, fasted, healthy volunteers",5
CC(=O)N[C@H]1CC[C@H](NC(=O)CN2CCN(c3nncc(-c4ccc(C)cc4)n3)CC2)CC1,human,"400 mg, single dose, fasted, healthy volunteers",1.3
C[C@H](N)C(=O)N1C[C@H](CCCB(O)O)[C@](N)(C(=O)O)C1,human,"75 mg twice daily, multiple doses, patients",4.1
C[C@H]1[C@H](F)C[C@@H](C(=O)NCc2cc(-c3cnc(C(F)(F)F)nc3)ncc2C(F)(F)F)N1S(=O)(=O)c1ccc(F)cc1,human,"single dose, fasted, healthy volunteers",3.5 to 7
CNc1nc(Nc2ccc(-n3cnc(C)n3)c(OC)c2)nc2c1CC[C@H]2c1ccc(F)cc1,human,"200 mg, multiple doses, once daily",5

# For quick reference, copied from above:
Compound,test system,conditions,Tmax [h]
CCOc1ccc(Cc2cc([C@]34OC[C@](CO)(O3)[C@@H](O)[C@H](O)[C@H]4O)ccc2Cl)cc1,human,"15 mg, single dose, healthy volunteers",1
C#C[C@]1(CO)O[C@@H](n2cnc3c(N)nc(F)nc32)C[C@@H]1O,human,"5 mg, single dose, fasted",0.5
CN(C)C/C=C/C(=O)Nc1cc2c(Nc3ccc(F)c(Cl)c3)ncnc2cc1O[C@H]1CCOC1,human,"40 mg, multiple doses, once daily, steady state, patients",2.95
C[C@@H]1CCC[C@H](n2cnc(-c3cc(Cl)ccc3-n3cc(Cl)nn3)cc2=O)c2cc(ccn2)-c2c(cnn2C(F)F)NC1=O,human,"single dose, fasted, healthy volunteers",3
